# Measurements gathered from unrelated publications.
# Every numbered part comes from another study and shows a few of its results, in no order. Positions count from the first letter of the parent shown.

# Sample 1
# Target: CCND2, cyclin fold, Cln2 fusion (human)
# Method: yeast growth competition, sequencing
# Matrix: yeast
# Setting: weak parent motif
# Reference: not given
# Reading: higher = stronger binding
# Starting sequence: SAMHD1 docking peptide (human); ASKSRVQLFKDDP
Substitution,normalised enrichment score
ASKSRVQLFLDDP [K10L],0.429
ASKSRVQLFKDVP [D12V],0.383
ASKSRVQLFKDEP [D12E],0.397

# Sample 2
# Target: Centromere-binding protein 1, full length, His-tagged (CBF1, Saccharomyces cerevisiae, UniProt P17106, residues 1-351)
# Chain of UniProt P17106 (whole entry, looked up): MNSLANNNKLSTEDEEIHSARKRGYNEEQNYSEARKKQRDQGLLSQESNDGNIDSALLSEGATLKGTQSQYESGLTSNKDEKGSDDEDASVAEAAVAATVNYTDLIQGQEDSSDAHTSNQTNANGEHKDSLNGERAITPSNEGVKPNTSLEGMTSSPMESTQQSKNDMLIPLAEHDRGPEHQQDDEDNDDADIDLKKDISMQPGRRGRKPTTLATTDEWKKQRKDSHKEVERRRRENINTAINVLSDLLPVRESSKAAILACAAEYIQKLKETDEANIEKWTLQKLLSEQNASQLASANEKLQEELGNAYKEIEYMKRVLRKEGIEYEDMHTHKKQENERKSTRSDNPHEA
# Method: competition protein-binding microarray
# Molecule type: double-stranded DNA, one strand shown
# Matrix: in vitro
# Concentration: 2 µM
# Setting: whole 60-bp probe, lowest competitor level
# With: Pho4 competitor, 0.05 µM
# Reading: higher = stronger binding
Sequence,fluorescence intensity [a.u.]
CTGTTTTTCACCTTCCACGTGGATTTTTTCGCGTTTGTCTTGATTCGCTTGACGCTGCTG,1120
TGCGCAACAACTTGTAGGGTGGGTGTATGTCTAGAAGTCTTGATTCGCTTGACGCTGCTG,70.6
CACCCCAGGAGTCTTCACATGAGCAGGAAGAATTTGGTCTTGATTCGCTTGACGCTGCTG,86.6
CGTCCTAGTGATTGTTAAGTGGGTGCCATGAGGAAGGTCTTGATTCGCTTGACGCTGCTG,96.5
CACTTATCTGTTGAAAAGGTGTGCCTATAGCAACTAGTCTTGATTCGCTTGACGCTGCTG,73.4
GGTAATATTTTTACCACCGTGCGGACTTTCAATGGCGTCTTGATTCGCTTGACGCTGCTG,94.9

# Sample 3
# Target: Max dimerization protein 1, bHLH-zipper, MAX partner unstated (MXD1, Homo sapiens, UniProt Q05195, residues 56-136)
# Method: protein-binding microarray
# Molecule type: double-stranded DNA, one strand shown
# Matrix: in vitro
# Concentration: not given
# Setting: k-mer, scored over probes, only values ≥0.25
# Reading: higher = stronger binding
# Construct (chain): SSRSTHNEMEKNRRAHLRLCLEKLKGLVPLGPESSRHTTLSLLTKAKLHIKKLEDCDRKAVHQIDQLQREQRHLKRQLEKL
Sequence,E-score
CATGCCGC,0.348
AGACCACG,0.308
CATGCCTC,0.368
AGAGCGTG,0.334
AGACGCAT,0.271
CATATGCC,0.283

# Mixed results
Molecule,target,assay,test system,setting,how to read,endpoint,value
"PhoQ, residues 284 288 289 292 302 303 ALAMYF","PhoP, residues 12 14 15 18 19 SMASL (Escherichia coli, UniProt P23836)","Sort-seq, refers to: YFP reporter",E. coli,"PhoQ-PhoP variant library, with: 10 µM Mg2+","reference: high Mg2+ state, higher = stronger signaling",fold induction,2.36

# Some of these lines once more (sample 3):
Sequence,E-score
CATGCCGC,0.348
AGACCACG,0.308
CATGCCTC,0.368
